Experimental data gathered from unrelated publications.
Lines come from different studies, so protocols differ. ± marks the error that the study gave.
AR: Androgen receptor (AR, Homo sapiens, UniProt P10275)
Sequence of UniProt P10275 (whole entry, looked up): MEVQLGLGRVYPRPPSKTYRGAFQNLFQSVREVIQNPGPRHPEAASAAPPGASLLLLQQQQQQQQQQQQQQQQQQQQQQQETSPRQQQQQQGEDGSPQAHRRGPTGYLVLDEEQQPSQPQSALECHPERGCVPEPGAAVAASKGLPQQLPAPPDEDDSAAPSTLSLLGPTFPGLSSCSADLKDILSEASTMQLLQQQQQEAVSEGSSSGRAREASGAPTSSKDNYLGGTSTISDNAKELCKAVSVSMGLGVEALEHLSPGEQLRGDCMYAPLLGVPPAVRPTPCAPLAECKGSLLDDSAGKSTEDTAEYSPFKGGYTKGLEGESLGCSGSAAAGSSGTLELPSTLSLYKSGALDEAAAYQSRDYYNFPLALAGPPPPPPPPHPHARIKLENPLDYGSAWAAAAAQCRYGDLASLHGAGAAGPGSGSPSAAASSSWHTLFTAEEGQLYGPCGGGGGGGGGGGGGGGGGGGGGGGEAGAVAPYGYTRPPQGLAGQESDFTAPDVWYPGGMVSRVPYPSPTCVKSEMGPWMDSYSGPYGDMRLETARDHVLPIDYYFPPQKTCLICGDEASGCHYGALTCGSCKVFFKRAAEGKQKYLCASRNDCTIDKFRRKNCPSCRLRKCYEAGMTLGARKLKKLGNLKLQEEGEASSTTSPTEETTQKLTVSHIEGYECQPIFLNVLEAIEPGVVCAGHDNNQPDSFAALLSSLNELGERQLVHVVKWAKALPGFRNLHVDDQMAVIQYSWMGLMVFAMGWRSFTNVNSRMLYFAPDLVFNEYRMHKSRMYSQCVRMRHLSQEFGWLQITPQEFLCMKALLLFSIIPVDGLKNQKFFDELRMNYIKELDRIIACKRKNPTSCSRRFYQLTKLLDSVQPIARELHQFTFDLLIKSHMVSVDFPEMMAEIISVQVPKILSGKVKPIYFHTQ
CPL: CPL (Toxoplasma gondii, UniProt Q6DMN0)
Sequence of UniProt P62937 (whole entry, looked up): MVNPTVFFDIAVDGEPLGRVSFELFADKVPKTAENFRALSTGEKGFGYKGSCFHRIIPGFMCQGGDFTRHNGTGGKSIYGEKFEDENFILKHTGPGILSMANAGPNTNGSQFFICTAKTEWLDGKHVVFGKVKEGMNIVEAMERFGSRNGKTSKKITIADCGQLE
Sequence of UniProt P32247 (whole entry, looked up): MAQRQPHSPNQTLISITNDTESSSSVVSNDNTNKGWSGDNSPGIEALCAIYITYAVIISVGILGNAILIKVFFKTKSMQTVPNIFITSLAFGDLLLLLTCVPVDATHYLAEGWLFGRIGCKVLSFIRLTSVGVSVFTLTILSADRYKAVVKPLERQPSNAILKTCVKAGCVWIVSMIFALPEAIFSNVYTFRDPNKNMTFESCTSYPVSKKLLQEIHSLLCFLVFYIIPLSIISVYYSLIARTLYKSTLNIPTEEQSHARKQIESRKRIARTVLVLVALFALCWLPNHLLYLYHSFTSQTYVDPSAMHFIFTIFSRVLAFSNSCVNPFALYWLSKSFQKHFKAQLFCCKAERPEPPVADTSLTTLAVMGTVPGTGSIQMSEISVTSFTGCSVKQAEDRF
Sequence of UniProt P00488 (whole entry, looked up): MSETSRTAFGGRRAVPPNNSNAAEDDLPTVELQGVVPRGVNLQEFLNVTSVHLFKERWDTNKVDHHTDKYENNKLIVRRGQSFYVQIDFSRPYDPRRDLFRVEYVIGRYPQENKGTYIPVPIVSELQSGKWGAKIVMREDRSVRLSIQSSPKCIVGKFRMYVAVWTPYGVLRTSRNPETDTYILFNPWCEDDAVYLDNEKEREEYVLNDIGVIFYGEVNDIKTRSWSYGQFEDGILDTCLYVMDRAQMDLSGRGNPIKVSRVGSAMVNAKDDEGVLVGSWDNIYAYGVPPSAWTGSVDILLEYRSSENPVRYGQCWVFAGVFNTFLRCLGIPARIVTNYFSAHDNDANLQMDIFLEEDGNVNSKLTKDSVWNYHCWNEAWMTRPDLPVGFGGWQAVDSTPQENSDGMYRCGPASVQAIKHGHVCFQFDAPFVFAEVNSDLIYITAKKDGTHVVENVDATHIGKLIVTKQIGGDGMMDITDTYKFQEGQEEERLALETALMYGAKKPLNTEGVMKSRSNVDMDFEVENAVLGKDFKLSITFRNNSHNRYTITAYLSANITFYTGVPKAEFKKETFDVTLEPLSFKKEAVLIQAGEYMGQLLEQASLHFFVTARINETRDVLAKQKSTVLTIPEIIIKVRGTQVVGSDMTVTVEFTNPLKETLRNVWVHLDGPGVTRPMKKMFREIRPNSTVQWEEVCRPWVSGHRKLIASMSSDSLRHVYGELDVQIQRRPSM
Sequence of UniProt P19256 (whole entry, looked up): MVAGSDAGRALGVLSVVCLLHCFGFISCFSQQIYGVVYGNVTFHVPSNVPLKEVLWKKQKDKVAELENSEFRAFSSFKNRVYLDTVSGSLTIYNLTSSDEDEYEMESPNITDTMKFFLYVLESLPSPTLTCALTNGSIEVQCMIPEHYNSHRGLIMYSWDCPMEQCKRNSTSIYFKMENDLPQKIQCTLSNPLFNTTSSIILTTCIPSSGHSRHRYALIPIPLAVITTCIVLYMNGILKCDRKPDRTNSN
Sequence of UniProt P05979 (whole entry, looked up): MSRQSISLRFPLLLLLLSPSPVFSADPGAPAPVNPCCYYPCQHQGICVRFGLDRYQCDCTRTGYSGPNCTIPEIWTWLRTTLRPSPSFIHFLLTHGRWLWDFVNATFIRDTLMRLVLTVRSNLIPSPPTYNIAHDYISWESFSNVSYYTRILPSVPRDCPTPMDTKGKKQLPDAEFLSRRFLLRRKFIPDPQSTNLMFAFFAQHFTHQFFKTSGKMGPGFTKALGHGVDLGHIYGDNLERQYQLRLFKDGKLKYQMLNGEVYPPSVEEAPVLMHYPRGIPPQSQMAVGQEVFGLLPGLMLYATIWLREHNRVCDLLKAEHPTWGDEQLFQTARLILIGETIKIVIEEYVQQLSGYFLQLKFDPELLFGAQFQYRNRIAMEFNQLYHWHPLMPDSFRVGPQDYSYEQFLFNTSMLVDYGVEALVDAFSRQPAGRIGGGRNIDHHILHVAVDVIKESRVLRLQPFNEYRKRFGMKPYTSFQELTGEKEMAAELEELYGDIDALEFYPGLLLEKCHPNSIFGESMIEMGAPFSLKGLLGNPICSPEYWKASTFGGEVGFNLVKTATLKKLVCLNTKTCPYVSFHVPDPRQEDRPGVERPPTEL
Sequence of UniProt P09483 (whole entry, looked up): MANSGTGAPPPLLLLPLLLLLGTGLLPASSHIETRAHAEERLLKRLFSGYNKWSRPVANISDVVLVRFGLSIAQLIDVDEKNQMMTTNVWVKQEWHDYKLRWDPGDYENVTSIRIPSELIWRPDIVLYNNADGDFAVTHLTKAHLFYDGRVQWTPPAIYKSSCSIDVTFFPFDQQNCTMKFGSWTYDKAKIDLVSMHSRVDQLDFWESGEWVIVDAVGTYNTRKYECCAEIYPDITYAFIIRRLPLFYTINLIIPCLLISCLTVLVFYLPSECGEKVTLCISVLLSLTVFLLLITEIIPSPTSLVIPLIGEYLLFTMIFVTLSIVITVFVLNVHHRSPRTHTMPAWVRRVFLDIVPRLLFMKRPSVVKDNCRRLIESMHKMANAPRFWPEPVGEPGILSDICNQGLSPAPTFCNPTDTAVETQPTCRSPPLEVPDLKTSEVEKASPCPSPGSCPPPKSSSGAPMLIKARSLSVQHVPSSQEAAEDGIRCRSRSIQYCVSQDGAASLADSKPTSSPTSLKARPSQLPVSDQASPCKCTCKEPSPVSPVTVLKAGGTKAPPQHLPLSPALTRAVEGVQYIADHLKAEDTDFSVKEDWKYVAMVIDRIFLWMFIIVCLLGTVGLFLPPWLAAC
Sequence of UniProt O43614 (whole entry, looked up): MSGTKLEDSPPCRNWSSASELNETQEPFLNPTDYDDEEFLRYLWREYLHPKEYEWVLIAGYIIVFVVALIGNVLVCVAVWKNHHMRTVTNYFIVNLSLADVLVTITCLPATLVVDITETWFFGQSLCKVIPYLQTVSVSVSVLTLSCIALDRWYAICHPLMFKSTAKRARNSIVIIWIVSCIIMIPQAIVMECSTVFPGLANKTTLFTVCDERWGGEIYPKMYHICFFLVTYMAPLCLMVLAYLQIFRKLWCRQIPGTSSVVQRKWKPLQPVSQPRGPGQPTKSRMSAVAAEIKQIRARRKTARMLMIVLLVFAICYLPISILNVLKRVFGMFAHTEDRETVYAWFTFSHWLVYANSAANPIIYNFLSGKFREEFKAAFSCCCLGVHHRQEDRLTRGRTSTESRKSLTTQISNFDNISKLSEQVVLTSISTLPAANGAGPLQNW
Sequence of UniProt Q99985 (whole entry, looked up): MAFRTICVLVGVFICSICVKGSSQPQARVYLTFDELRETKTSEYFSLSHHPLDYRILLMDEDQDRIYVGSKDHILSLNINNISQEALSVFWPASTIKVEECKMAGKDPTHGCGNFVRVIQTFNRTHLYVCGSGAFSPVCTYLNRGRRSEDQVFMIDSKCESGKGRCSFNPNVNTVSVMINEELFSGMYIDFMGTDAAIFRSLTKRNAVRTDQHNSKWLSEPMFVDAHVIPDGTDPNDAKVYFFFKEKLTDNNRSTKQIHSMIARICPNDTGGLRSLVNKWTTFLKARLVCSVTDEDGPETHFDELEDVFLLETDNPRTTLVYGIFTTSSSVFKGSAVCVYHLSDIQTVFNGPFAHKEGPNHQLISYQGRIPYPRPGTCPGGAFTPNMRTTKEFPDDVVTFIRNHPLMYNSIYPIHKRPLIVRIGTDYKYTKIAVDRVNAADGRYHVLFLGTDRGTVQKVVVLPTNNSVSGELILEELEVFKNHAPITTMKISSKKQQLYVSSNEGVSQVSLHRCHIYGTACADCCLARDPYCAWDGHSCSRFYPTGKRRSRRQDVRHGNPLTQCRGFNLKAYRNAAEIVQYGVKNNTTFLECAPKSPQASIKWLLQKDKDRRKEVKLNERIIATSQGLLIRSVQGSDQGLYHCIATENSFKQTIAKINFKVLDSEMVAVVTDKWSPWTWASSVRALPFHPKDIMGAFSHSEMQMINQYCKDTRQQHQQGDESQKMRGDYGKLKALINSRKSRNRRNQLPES

SMILES	target	assay	test system	conditions	IC50
O=C(Nc1ccc(Br)cc1)c1cc(Br)cc(Br)c1O	Semaphorin-3C, with neuropilin-1 (SEMA3C, Homo sapiens, UniProt Q99985)	SEMA3C binding, inhibitor, displacement	–	added: SEMA3C-AP	2980 nM
O=C(O)c1ccccc1Nc1ccc(Sc2ccccc2)cc1	AR	reporter gene, antagonist, MMTV-Luc reporter	MDA-kb2	20 h, added: 0.2 nM DHT (EC50)	6500 ± 5700 nM
CCC(C)SSc1ncc[nH]1 (stereo not shown)	genome polyprotein, 3C protease (Enterovirus D68, UniProt A0A097BW19)	enzyme activity, inhibitor	–	with 4 mM DTT	> 60000 nM
Cc1cc(S(=O)(=O)Nc2ncccn2)c(F)cc1N(C)C1CCN([C@H](C)c2ccccc2)CC1	Sodium channel protein type 2 subunit alpha (SCN2A, Homo sapiens, UniProt Q99250)	sodium current, inhibitor, automated patch clamp	–	inactivated state protocol	14300 nM
Cc1cc(C)c(S(=O)(=O)N2CC2C(N)=O)c(C)c1 (stereo not shown)	Protein disulfide-isomerase (P4HB, Homo sapiens, UniProt P07237)	enzyme activity, inhibitor, absorbance	–	pH 7.6	> 200000 nM
O=C(CCCCCCC(=O)Nc1ccc(N=Nc2ccccc2)cc1)NO	Protein deacetylase HDAC6 (HDAC6, Homo sapiens, UniProt Q9UBN7)	enzyme activity, inhibitor	–	trans isomer	10 ± 2 nM
CCN(CC)c1ccc(/C=C/C(=O)C(c2ccccc2)c2ccccc2)cc1	Prostaglandin G/H synthase 1 (PTGS1, Ovis aries, UniProt P05979)	enzyme activity, inhibitor, ELISA	–	–	29500 nM
Cc1ccc(Oc2ccc(Nc3ccccc3C(=O)O)cc2)cc1	AR	reporter gene, antagonist, MMTV-Luc reporter	MDA-kb2	20 h, added: 8 nM DHT (EC90)	> 100000 nM
COc1cccc(/C=C/C(=O)c2ccc(C)o2)c1OC	Prostaglandin G/H synthase 2 (PTGS2, Homo sapiens, UniProt P35354)	enzyme activity, inhibitor, ELISA	–	–	56200 nM
CC[C@@H]1NC(=O)[C@H]([C@H](O)[C@H](C)Cc2nc3ccc(-c4nc5ccccc5s4)cc3[nH]2)N(C)C(=O)[C@H](C(C)C)N(C)C(=O)[C@H](CC(C)C)N(C)C(=O)[C@H](CC(C)C)N(C)C(=O)[C@@H](C)NC(=O)[C@H](C)NC(=O)[C@H](CC(C)C)N(C)C(=O)[C@H](C(C)C)NC(=O)[C@H](CC(C)C)N(C)C(=O)CN(C)C1=O	Peptidyl-prolyl cis-trans isomerase A (PPIA, Homo sapiens, UniProt P62937)	enzyme activity, inhibitor	–	–	16.6 nM
C[C@H](NC(=O)[C@H](CCC(=O)O)NC(=O)[C@H](CO)NC(=O)[C@H](C)NC(=O)[C@H](CO)NC(=O)CSCCNC(=O)CCNC(=O)[C@H](O)C(C)(C)COP(=O)(O)OP(=O)(O)OC[C@H]1O[C@@H](n2cnc3c(N)ncnc32)[C@H](O)[C@@H]1OP(=O)(O)O)C(N)=O	N-alpha-acetyltransferase 50 (Homo sapiens, UniProt Q9GZZ1)	enzyme activity, inhibitor	–	–	11000 nM
NCCc1c(SSc2[nH]c3cc(F)ccc3c2CCN)[nH]c2cc(F)ccc12	Potassium voltage-gated channel subfamily A member 4 (KCNA4, Homo sapiens, UniProt P22459)	peak potassium current, inhibitor, automated whole-cell patch clamp	CHO-K1, tetracycline-inducible	–	26000 nM
O=C(N[C@@H](CC1CCCCC1)C(=O)N[C@@H](C[C@H]1CCNC1=O)C(=O)C(=O)NC1CC1)OCc1ccccc1	Genome polyprotein, 3C protease (Human enterovirus D68, UniProt Q68T42)	3C protease activity, inhibitor, FRET	–	–	21 ± 10 nM
Cc1cc2c(C(=O)Cc3ccccc3)c(O)c(O)cc2c(O)c1-c1c(C)cc2c(C(=O)Cc3ccccc3)c(O)c(O)cc2c1O	Bcl-2-like protein 1, transmembrane domain deleted (BCL2L1, Homo sapiens, UniProt Q07817)	binding, fluorescence polarization	–	added: FITC-Bak BH3 peptide	190 nM
CSCC[C@H](NC(=O)[C@H](Cc1ccccc1)NC(=O)[C@H](Cc1c[nH]cn1)NC(=O)CNC(=O)[C@@H](NC(=O)[C@H](C)NC(=O)[C@H](Cc1c[nH]c2ccccc12)NC(=O)[C@H](CCC(N)=O)NC(=O)[C@@H]1CCCN1C(=O)[C@@H](NC(=O)[C@@H]1CCC(=O)N1)C(C)C)C(C)C)C(N)=O	Bombesin receptor subtype-3 (BRS3, Homo sapiens, UniProt P32247)	human GRPR activity, cell-based	–	–	> 3000 nM
C[C@@H]1CCN(c2nc3ccc(Cl)cc3o2)CCN1S(=O)(=O)c1cccc(F)c1	Orexin receptor type 2 (HCRTR2, Homo sapiens, UniProt O43614)	calcium signal, antagonist, fluorescence	–	–	1650 nM
CC(C)C[C@@H]1NC(=O)[C@H](CCCCN)NC(=O)[C@H](CC(C)C)NC(=O)[C@@](C)(NC(=O)[C@H](Cc2ccccc2)NC(=O)[C@H](Cc2ccc(O)cc2)NC(=O)[C@H](C)NC(=O)[C@@H](N)[C@@H](C)O)CCCC=CCCC[C@@](C)(C(=O)NCC(=O)N[C@@H](CCCNC(=N)N)C(=O)N[C@@H](Cc2c[nH]c3ccccc23)C(N)=O)NC1=O	Gag-Pol polyprotein, integrase (gag-pol, Human immunodeficiency virus type 1 group M subtype B, UniProt P04585)	integrase strand transfer, inhibitor	–	–	6000 ± 1000 nM
O=[N+]([O-])c1cccc(-c2cc(C3CC4CCC3N4)cnc2F)c1 (racemic)	Neuronal acetylcholine receptor; alpha4/beta2 (Rattus norvegicus, UniProt P09483+P12390)	ion current, antagonist, two-electrode voltage clamp	–	oocytes	4300 nM
CSc1nc(Sc2nnnn2C)c2nnn(Cc3ccccc3Cl)c2n1	Lysine-specific histone demethylase 1A (KDM1A, Homo sapiens, UniProt O60341)	enzyme activity, inhibitor, fluorescence	–	–	80 nM
COC(=O)C=CCCC(NC(=O)c1ccncc1C(=O)O)C(=O)NC(C(=O)N1CC(=O)CC1C(=O)NC(C(=O)NC(C(N)=O)C1CCCCC1)C1CCCCC1)C(C)(C)C (stereo not shown)	Coagulation factor XIII A chain, with factor XIII B (F13A1, Homo sapiens, UniProt P00488)	transamidase activity, inhibitor	–	added: dansylcadaverine, N,N-dimethylcasein	4 ± 0.4 nM
CC(C)CCN(c1nc(C#N)nc(N2CCOCC2)n1)C(C)c1ccc(F)cc1 (stereo not shown)	CPL	enzyme activity, inhibitor, Z-L-R-AMC hydrolysis fluorescence	–	–	26 nM
CN[C@@H]1[C@H](O)[C@H](NC)[C@H]2O[C@]3(O)[C@H](O[C@@H]2[C@H]1O)O[C@H](C)C[C@]3(O)CNCc1ccc(OC(F)(F)F)cc1	Small ribosomal subunit protein uS5, 70S ribosome (rpsE, Mycolicibacterium smegmatis, UniProt A0QSG6)	translation, inhibitor, in vitro translation, luciferase	Mycobacterium smegmatis ribosomes	–	20.1 µg/mL
CC(C)CCN(Cc1ccccn1)c1nc(C#N)nc(N2CCOCC2)n1	CPL	enzyme activity, inhibitor, Z-L-R-AMC hydrolysis fluorescence	–	–	82 nM
C[C@@H]1NC(=O)[C@H](C)NC(=O)[C@@H]2CSSC[C@H](NC(=O)[C@H](CO)NC(=O)CNC1=O)C(=O)N[C@@H](CCCCN)C(=O)N[C@H]1CSSC[C@H](NC(=O)[C@H](CCCCN)NC(=O)[C@@H]3CSSC[C@H](NC(=O)[C@H](CO)NC1=O)C(=O)N[C@@H](Cc1ccc(O)cc1)C(=O)NCC(=O)N[C@@H](CC(=O)O)C(=O)N[C@@H](CC(=O)O)C(=O)N3)C(=O)N[C@@H](CCC(=O)O)C(=O)N2	Lymphocyte function-associated antigen 3, with CD2 (CD58, Homo sapiens, UniProt P19256)	–	human cells	–	> 50000 nM
N=C(N)NCCC[C@H](NC(=O)[C@H](CCCNC(=N)N)NC(=O)[C@H](CCCNC(=N)N)NC(=O)[C@H](CCCNC(=N)N)NC(=O)[C@H](CCCNC(=N)N)NC(=O)[C@H](CCCNC(=N)N)NC(=O)CCCCCNC(=O)[C@H]1O[C@@H](n2cnc3c(N)ncnc32)[C@H](O)[C@@H]1O)C(N)=O	cGMP-dependent protein kinase 1, isoform alpha (PRKG1, Homo sapiens, UniProt Q13976)	–	–	–	2570 nM
